Results of several laboratories.
“And” joins repeats or separate records; there may be more than shown. ± marks the error that the study gave.

COc1cccc(Oc2ccccc2NC(=O)CNC(=O)c2cccc3ccccc23)c1 — albumin/globulin ratio (esterase-deficient SCID mice, male; oral, 100 mg/kg/day, 14 days, toxicity study): 1.4 and 1.3
Oc1ccc(CSCc2ccc(O)cc2)cc1 — body weight (ICR mice male; oral, 1500 mg/kg, day 15, acute toxicity): 36.9 ± 2.69 g
C[C@]1(CO)Cc2ncn(-c3ccc(C#N)c(Cl)c3)c2C(=O)O1 — subjects with severe TEAEs (human; 2 mg single dose): 16.7%
[2H]C([2H])([18F])[C@]([2H])(N)C(=O)O — tumour-to-muscle ratio (PET; athymic nude mice, U-87 MG; dose not given, 30 min post-injection; relative to: tumour over muscle): 1.12 ± 0.15
CCc1ccc(CC/C=C/c2ccc3c(c2)C(=O)CC3)cc1 — MCV (Sprague-Dawley rat, female, blood; oral, 30 mg/kg/day, 14 days): 58.8 fL
O=C(Nc1ccccc1)C1CCN(C(=O)Oc2cccnc2)CC1 — subjects with pain in extremity (adverse event reporting; healthy women; oral, 20 mg, 7 days): 7.1%
O=C(c1ccc(F)cc1)C(F)(F)CCN1CCC(O)(c2ccc(Cl)cc2)CC1 — ketone metabolite formation (mouse liver microsomes): not detected
COc1cc2c(Oc3ccc4[nH]c(C)cc4c3F)ccnc2cc1OCC1(N)CC1 — hand-foot syndrome incidence (paediatric refractory sarcoma patients; 12 mg): 45.5%
CN1CC[C@@H](c2c(O)cc(O)c3c(=O)cc(-c4ccc(C(F)(F)F)cc4Cl)oc23)[C@@H]1CO — patients with adverse event (item: Dyspnea; B-cell malignancies or AML; oral, 50 mg, continuous dosing): 12.5%
[131I-].[Na+] — atrial fibrillation incidence (hyperthyroidism patients; 185 MBq, long-term follow-up): 0.4%
CC(C)C[C@H](NC(=O)[C@H](C)NC(=O)[C@@H](NC(=O)[C@H](CCCNC(=N)N)NC(=O)[C@H](CC(C)C)NC(=O)[C@H](Cc1c[nH]c2ccccc12)NC(=O)[C@@H]1CCCN1C(=O)[C@@H](N)CCCCN)C(C)C)C(=O)N[C@@H](CS)C(=O)N1CCC[C@H]1C(=O)NCC(=O)O — hemolysis (sheep red blood cells; 256 µM, 1 h, 37 °C): 0.86% and 1.28% and 0.92%
O=C(O)C(O)(c1cccs1)c1cccs1 — dose-normalised free AUC(0-24) (item: metabolite; human, plasma; oral, 10 mg once daily, 5 days, median): 0.296 (ng·h/mL)/mg
CO[C@H]1C[C@@H]2CC[C@@H](C)[C@@](O)(O2)C(=O)C(=O)N2CCCC[C@H]2C(=O)O[C@H]([C@H](C)C[C@@H]2CC[C@@H](OC(=O)NCCOCCOCCOCCOCCOCCOCCOCCOCCC(=O)N3CCc4cc(Cn5nc(-c6ccc7oc(N)nc7c6)c6c(N)ncnc65)ccc4C3)[C@H](OC)C2)C[C@@H](O)[C@H](C)/C=C(\C)[C@@H](O)[C@@H](OC)C(=O)[C@H](C)C[C@H](C)/C=C/C=C/C=C/1C — dysgeusia incidence (patients with advanced solid tumours; intravenous, 12 mg weekly, any grade): 25%

A few entries again:
C[C@]1(CO)Cc2ncn(-c3ccc(C#N)c(Cl)c3)c2C(=O)O1 — subjects with severe TEAEs (human; 2 mg single dose): 16.7%
[2H]C([2H])([18F])[C@]([2H])(N)C(=O)O — tumour-to-muscle ratio (PET; athymic nude mice, U-87 MG; dose not given, 30 min post-injection; relative to: tumour over muscle): 1.12 ± 0.15
